Measurements pooled from the literature.
Compare with care: the assays were run in different laboratories. “And” joins repeats or separate records; there may be more than shown. Numbers after ± are the reported error.
APP Aβ aggregates: Amyloid-beta precursor protein, Aβ aggregates (APP, Homo sapiens, UniProt P05067)
Chain of UniProt P05067 (whole entry, looked up): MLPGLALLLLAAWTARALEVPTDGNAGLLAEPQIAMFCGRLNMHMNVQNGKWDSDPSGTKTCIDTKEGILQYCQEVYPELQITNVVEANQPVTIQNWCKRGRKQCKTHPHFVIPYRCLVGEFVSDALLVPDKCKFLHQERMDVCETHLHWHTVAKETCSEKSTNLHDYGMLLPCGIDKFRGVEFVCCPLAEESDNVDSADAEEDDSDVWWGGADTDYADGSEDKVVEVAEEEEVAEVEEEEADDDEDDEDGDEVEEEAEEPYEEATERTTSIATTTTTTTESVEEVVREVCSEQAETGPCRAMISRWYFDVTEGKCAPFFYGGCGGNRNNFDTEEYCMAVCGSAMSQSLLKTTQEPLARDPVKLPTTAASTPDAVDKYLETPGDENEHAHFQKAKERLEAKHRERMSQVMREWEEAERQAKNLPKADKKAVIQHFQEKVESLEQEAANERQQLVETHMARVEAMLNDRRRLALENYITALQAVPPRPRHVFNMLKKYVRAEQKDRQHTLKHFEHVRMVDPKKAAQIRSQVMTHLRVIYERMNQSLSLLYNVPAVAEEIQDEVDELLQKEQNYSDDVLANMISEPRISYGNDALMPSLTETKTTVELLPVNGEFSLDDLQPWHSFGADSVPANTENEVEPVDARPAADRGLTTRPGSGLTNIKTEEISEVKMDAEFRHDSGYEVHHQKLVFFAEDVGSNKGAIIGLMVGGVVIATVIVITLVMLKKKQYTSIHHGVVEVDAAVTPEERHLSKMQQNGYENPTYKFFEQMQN
APP Aβ40 fibrils: Amyloid-beta precursor protein, Aβ40 fibrils (APP, Homo sapiens, UniProt P05067)
Ppara F272I: Peroxisome proliferator-activated receptor alpha (Ppara, Mus musculus, UniProt P23204, F272I)
Chain of UniProt P23204 (whole entry, unmodified, looked up): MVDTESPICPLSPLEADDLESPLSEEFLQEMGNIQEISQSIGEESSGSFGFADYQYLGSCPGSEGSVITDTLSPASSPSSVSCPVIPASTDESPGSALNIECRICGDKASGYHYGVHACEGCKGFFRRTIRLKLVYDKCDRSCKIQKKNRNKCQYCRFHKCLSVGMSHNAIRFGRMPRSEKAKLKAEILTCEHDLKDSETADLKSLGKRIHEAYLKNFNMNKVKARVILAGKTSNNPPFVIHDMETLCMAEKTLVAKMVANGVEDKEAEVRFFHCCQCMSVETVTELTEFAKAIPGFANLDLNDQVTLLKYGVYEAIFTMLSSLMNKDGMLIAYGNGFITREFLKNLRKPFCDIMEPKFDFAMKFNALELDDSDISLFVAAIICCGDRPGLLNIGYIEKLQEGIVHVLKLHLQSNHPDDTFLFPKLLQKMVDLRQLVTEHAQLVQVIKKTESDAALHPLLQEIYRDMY
EZH1 in PRC2 complex: Histone-lysine N-methyltransferase EZH1, in PRC2 complex (EZH1, Homo sapiens, UniProt Q92800)
Chain of UniProt Q92800 (whole entry, looked up): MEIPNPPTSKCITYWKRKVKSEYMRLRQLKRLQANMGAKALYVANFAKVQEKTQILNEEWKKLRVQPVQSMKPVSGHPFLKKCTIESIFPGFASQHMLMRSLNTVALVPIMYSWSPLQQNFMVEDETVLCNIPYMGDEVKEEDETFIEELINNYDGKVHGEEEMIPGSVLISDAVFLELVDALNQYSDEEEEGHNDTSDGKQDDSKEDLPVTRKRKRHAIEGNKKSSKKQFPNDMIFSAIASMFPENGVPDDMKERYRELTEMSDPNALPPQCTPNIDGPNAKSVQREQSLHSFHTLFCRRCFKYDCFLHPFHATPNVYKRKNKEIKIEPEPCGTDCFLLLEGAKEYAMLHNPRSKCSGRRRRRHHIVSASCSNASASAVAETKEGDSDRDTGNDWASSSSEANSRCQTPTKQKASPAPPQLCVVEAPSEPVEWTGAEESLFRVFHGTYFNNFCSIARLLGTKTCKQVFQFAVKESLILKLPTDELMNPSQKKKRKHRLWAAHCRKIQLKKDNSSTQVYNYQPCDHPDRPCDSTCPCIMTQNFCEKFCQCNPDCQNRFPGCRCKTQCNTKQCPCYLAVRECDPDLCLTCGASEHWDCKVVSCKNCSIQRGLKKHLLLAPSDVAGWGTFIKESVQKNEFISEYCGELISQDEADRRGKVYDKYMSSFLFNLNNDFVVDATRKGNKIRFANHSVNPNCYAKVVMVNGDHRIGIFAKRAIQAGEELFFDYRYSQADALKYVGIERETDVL
Chain of UniProt Q9PHN5 (whole entry, looked up): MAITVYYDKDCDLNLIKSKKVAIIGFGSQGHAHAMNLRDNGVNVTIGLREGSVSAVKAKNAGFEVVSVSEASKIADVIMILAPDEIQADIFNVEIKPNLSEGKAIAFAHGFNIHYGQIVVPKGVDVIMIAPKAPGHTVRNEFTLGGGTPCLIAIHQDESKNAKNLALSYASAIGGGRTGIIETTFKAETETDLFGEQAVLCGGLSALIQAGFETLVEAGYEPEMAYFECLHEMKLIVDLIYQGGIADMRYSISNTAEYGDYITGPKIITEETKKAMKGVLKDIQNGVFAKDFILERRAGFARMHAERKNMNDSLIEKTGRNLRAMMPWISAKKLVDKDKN
Chain of UniProt P54750 (whole entry, looked up): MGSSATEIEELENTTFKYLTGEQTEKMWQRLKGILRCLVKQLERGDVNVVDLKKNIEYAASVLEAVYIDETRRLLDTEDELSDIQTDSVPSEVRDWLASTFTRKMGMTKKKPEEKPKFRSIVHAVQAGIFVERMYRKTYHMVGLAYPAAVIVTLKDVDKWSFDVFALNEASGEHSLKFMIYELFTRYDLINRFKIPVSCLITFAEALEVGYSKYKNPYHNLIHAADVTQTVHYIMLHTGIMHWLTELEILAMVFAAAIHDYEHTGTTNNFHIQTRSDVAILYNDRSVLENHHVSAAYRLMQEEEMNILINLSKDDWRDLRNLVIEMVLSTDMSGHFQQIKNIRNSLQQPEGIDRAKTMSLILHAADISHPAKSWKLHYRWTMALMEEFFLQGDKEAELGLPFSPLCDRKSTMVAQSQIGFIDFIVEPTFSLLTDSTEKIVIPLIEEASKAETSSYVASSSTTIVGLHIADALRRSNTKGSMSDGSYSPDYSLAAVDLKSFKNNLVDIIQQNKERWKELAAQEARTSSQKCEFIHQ
Chain of UniProt P32901 (whole entry, looked up): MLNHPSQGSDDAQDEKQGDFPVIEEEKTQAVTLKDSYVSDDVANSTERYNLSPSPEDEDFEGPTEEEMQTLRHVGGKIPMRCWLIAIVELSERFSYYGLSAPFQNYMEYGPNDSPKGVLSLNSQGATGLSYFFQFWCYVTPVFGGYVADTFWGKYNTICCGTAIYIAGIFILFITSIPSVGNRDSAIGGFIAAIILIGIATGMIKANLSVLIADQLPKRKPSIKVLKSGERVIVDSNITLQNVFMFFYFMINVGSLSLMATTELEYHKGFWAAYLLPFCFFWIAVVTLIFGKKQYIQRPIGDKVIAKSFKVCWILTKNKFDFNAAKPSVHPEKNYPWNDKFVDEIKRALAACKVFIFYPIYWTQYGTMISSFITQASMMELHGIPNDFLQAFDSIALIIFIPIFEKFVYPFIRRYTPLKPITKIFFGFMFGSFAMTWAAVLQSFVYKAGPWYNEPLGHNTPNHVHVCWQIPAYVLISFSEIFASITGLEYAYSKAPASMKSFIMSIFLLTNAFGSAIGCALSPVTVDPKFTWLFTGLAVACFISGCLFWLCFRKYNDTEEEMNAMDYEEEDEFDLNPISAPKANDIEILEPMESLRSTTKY
Chain of UniProt O60701 (whole entry, unmodified, looked up): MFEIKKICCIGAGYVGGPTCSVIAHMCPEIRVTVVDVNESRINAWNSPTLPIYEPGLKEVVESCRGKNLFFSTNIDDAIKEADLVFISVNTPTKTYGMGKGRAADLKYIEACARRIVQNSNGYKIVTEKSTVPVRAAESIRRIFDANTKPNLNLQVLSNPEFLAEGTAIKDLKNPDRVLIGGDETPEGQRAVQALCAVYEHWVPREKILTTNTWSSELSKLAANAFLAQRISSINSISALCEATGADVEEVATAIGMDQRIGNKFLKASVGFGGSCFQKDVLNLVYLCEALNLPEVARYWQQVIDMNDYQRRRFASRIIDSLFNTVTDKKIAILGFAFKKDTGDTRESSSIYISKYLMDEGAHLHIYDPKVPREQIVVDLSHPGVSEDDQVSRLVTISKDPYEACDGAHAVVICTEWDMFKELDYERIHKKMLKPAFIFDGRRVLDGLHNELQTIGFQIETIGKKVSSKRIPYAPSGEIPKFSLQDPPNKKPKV
Chain of UniProt P46098 (whole entry, looked up): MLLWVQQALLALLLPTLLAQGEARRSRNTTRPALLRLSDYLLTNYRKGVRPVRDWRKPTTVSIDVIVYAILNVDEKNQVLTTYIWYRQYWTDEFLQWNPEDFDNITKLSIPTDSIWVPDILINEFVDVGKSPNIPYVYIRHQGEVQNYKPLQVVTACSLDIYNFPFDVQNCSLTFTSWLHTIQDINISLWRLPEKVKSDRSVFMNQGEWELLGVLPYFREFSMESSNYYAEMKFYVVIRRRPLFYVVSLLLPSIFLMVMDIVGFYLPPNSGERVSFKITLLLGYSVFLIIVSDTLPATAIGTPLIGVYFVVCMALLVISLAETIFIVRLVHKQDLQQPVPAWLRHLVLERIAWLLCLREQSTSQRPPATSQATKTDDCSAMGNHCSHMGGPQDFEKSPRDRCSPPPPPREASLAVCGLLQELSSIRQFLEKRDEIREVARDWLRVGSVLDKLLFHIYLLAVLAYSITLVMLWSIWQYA
Chain of UniProt O15244 (whole entry, looked up): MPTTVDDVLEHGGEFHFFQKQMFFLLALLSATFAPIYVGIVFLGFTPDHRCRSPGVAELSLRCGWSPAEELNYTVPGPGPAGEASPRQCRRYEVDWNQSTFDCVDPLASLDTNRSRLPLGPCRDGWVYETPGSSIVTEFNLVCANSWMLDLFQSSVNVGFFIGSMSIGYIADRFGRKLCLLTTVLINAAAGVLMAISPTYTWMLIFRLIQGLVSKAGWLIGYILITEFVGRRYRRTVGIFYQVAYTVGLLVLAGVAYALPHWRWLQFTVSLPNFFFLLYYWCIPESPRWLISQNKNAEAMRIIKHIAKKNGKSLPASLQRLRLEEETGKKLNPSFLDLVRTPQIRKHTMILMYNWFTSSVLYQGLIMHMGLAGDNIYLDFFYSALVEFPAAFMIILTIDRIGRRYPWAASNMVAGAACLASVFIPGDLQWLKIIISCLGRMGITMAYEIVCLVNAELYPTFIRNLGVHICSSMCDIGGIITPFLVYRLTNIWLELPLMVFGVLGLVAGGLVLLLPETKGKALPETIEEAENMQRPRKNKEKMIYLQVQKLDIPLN

| Compound | target | test | test system | conditions | Ki |
| --- | --- | --- | --- | --- | --- |
| COc1ccc(C(=O)Nc2ccc(N3CCCN(c4ccccn4)CC3)cc2)cc1 | APP Aβ aggregates | [3H]PiB competition binding, item: amyloid-beta | Alzheimer's disease brain homogenate | together with: [3H]PiB | > 1000 nM |
| Oc1ccc(N=Nc2ccc(-c3nc4ccccc4s3)cc2)cc1CN(Cc1ccccc1)Cc1ccccn1 | APP Aβ40 fibrils | binding to Aβ fibrils, thioflavin T competition |  | Aβ 5 µM, together with: ThT 2 µM | 1500 nM |
| C[C@H](NC(=O)[C@@H](N)Cc1c[nH]c2ccccc12)C(=O)O | Peptide transporter PTR2 (PTR2, Saccharomyces cerevisiae, UniProt P32901) |  |  |  | 28000 nM |
| COc1ccc(C(=O)Nc2ccc(N3CCC4(CC3)CCN(c3ccccn3)C4)cc2)cc1 | APP Aβ aggregates | [3H]PiB competition binding, item: amyloid-beta | Alzheimer's disease brain homogenate | together with: [3H]PiB | ≥ 760 nM |
| O=c1[nH]c2nc(-c3ccccc3)sc2c(=O)n1O | Ketol-acid reductoisomerase (NADP(+)) (ilvC, Campylobacter jejuni subsp. jejuni serotype O:2, UniProt Q9PHN5) |  |  | pre-incubation 3 h without NADPH, together with: NADPH 200 µM, AL 1 mM | 14 nM and 14.2 nM |
| O=c1ccn([C@@H]2O[C@H](COP(=O)(O)OP(=O)(O)O[C@H]3OC[C@@H](O)[C@H](O)[C@H]3O)[C@@H](O)[C@H]2O)c(=O)[nH]1 | UGDH (Homo sapiens, UniProt O60701, A104G) | inhibitor, steady-state kinetics |  |  | 190 ± 200 nM |
| CCCCCCCCCCCCCCCCCC(=O)O | Ppara F272I |  |  |  | 15 ± 1 nM |
| CC[C@H](C)n1cc(C)c2c(C(=O)NCc3c(C)cc(C)[nH]c3=O)cc(-c3ccc(N4CCNCC4)nc3)cc21 | EZH1 in PRC2 complex | differential scanning fluorimetry |  | extrapolated from Tm, together with: activator peptide | 33 nM |
| COc1ccc(C(=O)Nc2ccc(N3CCCN(c4ccccn4)CC3)cn2)cc1 | APP Aβ aggregates | [3H]PiB competition binding, item: amyloid-beta | Alzheimer's disease brain homogenate | together with: [3H]PiB | > 1000 nM |
| CN/C(=N/CCSCc1nc[nH]c1C)NC#N | SLC22A2 (Homo sapiens, UniProt O15244) | inhibitor |  |  | 26200 nM |
| Cc1ccc([C@H]2C[C@@H]2COc2cc(NCc3nnc(C)s3)nc(C)n2)nc1 | PDE1A (Homo sapiens, UniProt P54750) | enzyme activity, inhibitor, IMAP fluorescence polarization |  | together with: cGMP | > 58300 nM |
| CCOC(=O)C(C)(C)Oc1ccc(Cl)cc1 | Ppara F272I |  |  |  | 51 ± 3 nM |
| N[C@@H](CS)C(=O)O | Collagen-like surface protein SclA (Enterococcus faecalis, UniProt Q831E3) | selenide production, competitive inhibitor |  | together with: pyruvate 5 mM | 550000 ± 90000 nM |
| COc1cc(C)[nH]c(=O)c1CN1CCc2c(Cl)cc([C@H](OC)C3COC3)c(Cl)c2C1=O | EZH1 in PRC2 complex | differential scanning fluorimetry |  | extrapolated from Tm, together with: activator peptide | 2.7 nM |
| CC/C=C\C/C=C\C/C=C\C/C=C\C/C=C\C/C=C\CCC(=O)O | Ppara F272I |  |  |  | 17 ± 2 nM |
| COc1ccc(C(=O)Nc2ccc(N3C4CCC3CN(c3cnc5ccccc5c3)C4)cc2)cc1 | APP Aβ aggregates | [3H]PiB competition binding, item: amyloid-beta | Alzheimer's disease brain homogenate | together with: [3H]PiB | > 1000 nM |
| CNC(=O)[C@@]12C[C@@H]1[C@@H](n1cnc3c(NC)nc(C#C[c-]4cccc4)nc31)[C@H](O)[C@@H]2O.[Fe+2].c1cc[cH-]c1 | HTR3A (Homo sapiens, UniProt P46098) | radioligand binding (PDSP) |  |  | 2620 nM |
| NCc1ccc(-c2nc3ccccc3s2)cc1 | APP Aβ40 fibrils | amyloid-beta fibril binding, ThT fluorescence competition |  | together with: thioflavin T | 5 nM |

Repeated from above:
| Compound | target | test | test system | conditions | Ki |
| --- | --- | --- | --- | --- | --- |
| CNC(=O)[C@@]12C[C@@H]1[C@@H](n1cnc3c(NC)nc(C#C[c-]4cccc4)nc31)[C@H](O)[C@@H]2O.[Fe+2].c1cc[cH-]c1 | HTR3A (Homo sapiens, UniProt P46098) | radioligand binding (PDSP) |  |  | 2620 nM |
| CC[C@H](C)n1cc(C)c2c(C(=O)NCc3c(C)cc(C)[nH]c3=O)cc(-c3ccc(N4CCNCC4)nc3)cc21 | EZH1 in PRC2 complex | differential scanning fluorimetry |  | extrapolated from Tm, together with: activator peptide | 33 nM |
